Measurements from different studies.
Protocols differ between the studies behind these lines. Several values in a cell are separate wells, animals, samples, runs or records. ± gives the spread as reported.

O=C(Nc1ccccc1)C1CCN(C(=O)Oc2cccnc2)CC1  subjects with Photophobia adverse event (adverse event reporting; healthy women; oral, 100 mg, 9 days): 0%
CC(C)Nc1ccnc(Nc2cccc(-c3cccnc3)c2)n1  blood chemistry (measured: ALT; mouse, blood; intraperitoneal, 10 mg/kg): 46.5 U/L
CC[C@H](C)[C@H](NC(=O)[C@H](CCCCN)NC(=O)[C@H](CCC(=O)O)NC(=O)[C@H](CCCCN)NC(=O)[C@H](CO)NC(=O)[C@H](CCCCN)NC(=O)[C@H](CCCNC(=N)N)NC(=O)[C@H](Cc1ccccc1)NC(=O)[C@H](Cc1ccccc1)NC(=O)[C@H](CC(=O)O)NC(=O)CNC(=O)[C@H](CC(C)C)NC(=O)[C@@H](N)CC(C)C)C(=O)NCC(=O)N[C@@H](CCCCN)C(=O)N[C@@H](CCC(=O)O)C(=O)N[C@@H](Cc1ccccc1)C(=O)N[C@@H](CCCCN)C(=O)N[C@@H](CCCNC(=N)N)C(=O)N[C@H](C(=O)N[C@H](C(=O)N[C@@H](CCC(N)=O)C(=O)N[C@@H](CCCNC(=N)N)C(=O)N[C@H](C(=O)N[C@@H](CCCCN)C(=O)N[C@@H](CC(=O)O)C(=O)N[C@@H](Cc1ccccc1)C(=O)N[C@@H](CC(C)C)C(=O)N[C@@H](CCCNC(=N)N)C(=O)N[C@@H](CC(N)=O)C(=O)N[C@@H](CC(C)C)C(=O)N[C@H](C(=O)N1CCC[C@H]1C(=O)N[C@@H](CCCNC(=N)N)C(=O)N[C@H](C(=O)N[C@@H](CCC(=O)O)C(=O)N[C@@H](CO)C(=O)O)[C@@H](C)O)C(C)C)[C@@H](C)CC)C(C)C)[C@@H](C)CC  remaining intact peptide (LC-MS; buffer with trypsin; 40 µM, 540 min, pH 7.5, 37 °C; reference: 0 h): 0.632% and 0.903% and 1.21%
C[C@@H](NC(=O)N1C(=O)[C@H](Cc2ccnc(N)c2)[C@H]1C(=O)O)C1CCCCC1  adverse events excluding prolonged aPTT (healthy Chinese adult volunteers; continuous intravenous infusion, dose not given, 5.0 days, CTCAE 5.0, all doses): 52.5%
Cn1cc(-c2nc(N[C@@H]3CCCC[C@@H]3N)c(F)c3c2C(=O)NC3)cn1  adverse events (any bleeding; patients with relapsed or refractory AML; oral, 120 mg once daily): 50%
S=c1oc(-c2ccccc2)nn1CN1CCN(Cc2ccccc2)CC1  serum ALP (Wistar rat female; oral, 500 mg/kg, acute toxicity OECD 423): 13 ± 1.02 KA/dL
COc1cc2c(Oc3ccc4[nH]c(C)cc4c3F)ccnc2cc1OCC1(N)CC1  grade 1 or 2 ALP elevation (paediatric recurrent refractory sarcoma; 10 mg): 25%
COc1ccc(C[C@@H]2NC(=O)[C@H]([C@@H](C)O)NC(=O)[C@@H]3[C@@H]4CCN3C(=O)[C@@H]3Cc5cn(c6ccc(F)cc56)CCCCCCN(Cc5ccc(cc5)CCNC(=O)[C@]5(C)CCCN5C2=O)C(=O)CCC(=O)N[C@@H](C)C(=O)N[C@H](CNC(=O)CCCCC[N+](C)(C)C)C(=O)N[C@@H](Cc2cccc(c2)CNC(=O)CO4)C(=O)N3)cc1  participants with adverse event (measured: contact dermatitis; human; dose not given): 0%
CCCCCOc1ccc(-c2ccc(-c3ccc(C(=O)N[C@H]4C[C@@H](O)[C@@H](OCC[N+](C)(C)C)NC(=O)[C@@H]5[C@@H](O)[C@@H](C)CN5C(=O)[C@H]([C@@H](C)O)NC(=O)[C@H]([C@H](O)[C@@H](O)c5ccc(O)cc5)NC(=O)[C@@H]5C[C@@H](O)CN5C(=O)[C@H]([C@@H](C)O)NC4=O)cc3)cc2)cc1  alanine aminotransferase (adult ICU patients, mITT, serum; dose not given, EOT): 18 U/L
C[C@]1(O)C[C@@](N)(c2ccc(-c3nc4n(c3-c3ccccc3)COc3ccncc3-4)cc2)C1  patients with Hyperglycemia TEAE (human, advanced or metastatic solid tumours; once daily, dose escalation total, any grade): 22.2%
Clc1cc2c(cc1Cl)Oc1cc(Cl)c(Cl)cc1O2  mRNA level (RNA-Seq, measured: Cyp2j4; female Sprague-Dawley rat, liver; dose not given; reference: vehicle): 1.7 fold
Cc1cccc(-c2cccc(C)n2)n1.Cc1cccc(-c2cccc(C)n2)n1.F[P-](F)(F)(F)(F)F.F[P-](F)(F)(F)(F)F.[Ru+2].c1ccc2cc(-c3nc4c5cccnc5c5ncccc5c4[nH]3)ccc2c1  singlet oxygen quantum yield (aerated acetonitrile; 298 K; reference: Ru(bpy)3(PF6)2): 0
O=C1Nc2cc3[nH]nc(-c4ccncc4)c3cc2CN1Cc1ccccc1  patients with TEAE (measured: Rash; patients with advanced solid tumours; intravenous, dose not given, all schedules): 12%
C=CC(=O)Nc1cc(Nc2nccc(Nc3cc(Cl)c(F)cc3C(C)(C)O)n2)c(OC)cc1N1CC[C@@H](N(C)C)C1  patients with rash (human patients; oral, 300 mg, treatment-emergent adverse events): 45.1%
CC(=O)c1c(C)c2cnc(Nc3ccc(C4CCN(CCS(C)(=O)=O)CC4)cn3)nc2n(C2CCCC2)c1=O  patients with neutropenia (HR+/HER2- advanced breast cancer patients; oral, dose not given, all grades, dose escalation, sample B patients): 73.7%
O=C([O-])CN1CCN(CC(=O)[O-])CCN(CC(=O)NCC2CCC(C(=O)N[C@@H](Cc3ccc4ccccc4c3)C(=O)NCCCC[C@H](NC(=O)N[C@@H](CCC(=O)O)C(=O)O)C(=O)O)CC2)CCN(CC(=O)[O-])CC1.[177Lu+3] (stereo partly drawn)  distribution half-life (BALB/c mouse, blood; intravenous): 3.25 min
[2H]C([2H])([18F])[C@]([2H])(N)C(=O)O  tissue uptake (PET; athymic nude mice, U-87 MG, tumor; dose not given, 20 min post-injection): 1.59 ± 0.05 %ID/cc
Cc1sc2c(c1C)C(c1ccc(Cl)cc1)=N[C@@H](CC(=O)Nc1ccc(O)cc1)c1nnc(C)n1-2  AUC(0-last) (Crl:CD1(ICR) mice, female, plasma; intravenous, 5 µmol/kg): 2.63 µM·h
C[C@@H]1OC(=O)NN=C1c1ccc(-c2ccc(F)cc2)c(C(F)(F)F)c1  patients with adverse event (phase I trial, measured: Dyspnoea worst grade 2; human patients; 20 mg loading then 1 mg daily): 50%
COc1ccc(CCC2CCCC(CCc3ccc(OC)cc3)N2C[C@@H](O)CO)cc1.Cl (stereo in doubt)  action potential amplitude change (rabbit Purkinje fibres; 0.03 µM, cycle length 1 s; reference: baseline): 1.2 ± 2.4 mV
O=S(=O)(Nc1ccccc1)c1ccc(NC(=S)Nc2ccccc2)cc1  relative organ weight (female mice, lung; oral, 5 mg/kg daily 14 days; reference: body weight): 1.12%
CC[C@H](C)[C@H](NC(=O)[C@H](Cc1ccccc1)NC(=O)[C@H](CCC(=O)O)NC(=O)[C@H](CCCNC(=N)N)NC(=O)[C@H](C)NC(=O)[C@H](C)NC(=O)[C@H](CCC(N)=O)NC(=O)[C@H](CCC(=O)O)NC(=O)[C@H](CCC(=O)O)NC(=O)[C@H](CC(C)C)NC(=O)[C@H](Cc1ccc(O)cc1)NC(=O)[C@H](CO)NC(=O)[C@H](CO)NC(=O)[C@@H](NC(=O)[C@H](CC(=O)O)NC(=O)[C@H](CO)NC(=O)[C@@H](NC(=O)[C@H](Cc1ccccc1)NC(=O)[C@@H](NC(=O)CNC(=O)[C@H](CCC(=O)O)NC(=O)[C@H](C)NC(=O)CCc1cnc[nH]1)[C@@H](C)O)[C@@H](C)O)C(C)C)C(=O)N[C@@H](C)C(=O)N[C@@H](Cc1c[nH]c2ccccc12)C(=O)N[C@@H](CC(C)C)C(=O)N[C@H](C(=O)N[C@@H](CCCNC(=N)N)C(=O)NCC(=O)N[C@@H](CCCNC(=N)N)C(=O)N[C@@H](CCCCNC(=O)COCCOCCNC(=O)COCCOCCNC(=O)CC[C@H](NC(=O)CCCCCCCCCCCCCCCCC(=O)O)C(=O)O)C(=O)NCC(=O)NCC(=O)N[C@@H](CO)C(=O)N[C@@H](CCCCNC(=O)[C@H](CCCCNC(=O)[C@H](CCCCNc1c(NCCCCCN(O)C(=O)CCC(=O)NCCCCCN(O)C(=O)CCC(=O)NCCCCCN(O)C(C)=O)c(=O)c1=O)Nc1c(NCCCCCN(O)C(=O)CCC(=O)NCCCCCN(O)C(=O)CCC(=O)NCCCCCN(O)C(C)=O)c(=O)c1=O)NC(=O)[C@H](CCCCNc1c(NCCCCCN(O)C(=O)CCC(=O)NCCCCCN(O)C(=O)CCC(=O)NCCCCCN(O)C(C)=O)c(=O)c1=O)Nc1c(NCCCCCN(O)C(=O)CCC(=O)NCCCCCN(O)C(=O)CCC(=O)NCCCCCN(O)C(C)=O)c(=O)c1=O)C(=O)O)C(C)C [zirconium-89 labelled]  tissue uptake (ex vivo gamma counting; male Sprague-Dawley rats, muscle; intravenous, 1 nmol, 24 h): 0.114 %ID/g
O=c1ccc2ncc(=O)n3c2n1C[C@H]3CN1CCC(NCc2cc3c(cn2)OCCC3)CC1  incidence of AST increased (healthy human volunteers; oral, 1500 mg, rifampicin cohort, together with: rifampicin 600 mg): 0%
C=C(CN(C(=O)c1c(C(F)F)nn(C)c1F)C1CC1)c1ccc(Cl)cc1Cl  mortality (static acute toxicity test; zebrafish (Brachydanio rerio); 0.578 mg a.i./L, 72 h): 0%
CC(C)[C@@H]1NC(=O)CNC(=O)[C@H](CC(N)=O)NC(=O)[C@H](CCCNC(=N)N)NC(=O)[C@H](Cc2ccc(O)cc2)NC(=O)[C@H](C(C)C)NC(=O)[C@@H](NC(=O)[C@@H](NC(=O)[C@H](CC(N)=O)NC(=O)[C@H](Cc2c[nH]c3ccccc23)NC(=O)[C@H](C)NC(=O)[C@H](Cc2ccccc2)NC(=O)CN)C(C)C)CSSC[C@@H](C(=O)N[C@@H](Cc2cnc[nH]2)C(=O)N[C@@H](CCCNC(=N)N)C(=O)N[C@@H](CCCNC(=N)N)C(=O)N[C@@H](C)C(=O)N[C@@H](CC(N)=O)C(N)=O)NC(=O)[C@H](C(C)C)NC(=O)[C@H](CCCNC(=N)N)NC1=O  MCV (ICR mouse, blood; intramammary, 5 mg/kg, day 5, 3 d dosing): 40.7 ± 1.09 fL
C[C@]1(CO)Cc2ncn(-c3ccc(C#N)c(Cl)c3)c2C(=O)O1  Cmax (human, Chinese, plasma; 3 mg single dose, geometric mean): 173 nM
Cc1ccc(F)c2cc(C(=O)N[C@@H]3CCC[C@H](N4CC[C@H](N(C)S(C)(=O)=O)C4)C3)[nH]c12  AUC(0-inf) (CD1 mouse; oral, 100 mg/kg): 19900 ng·h/mL
CC/C(=C(\c1ccccc1)c1ccc(OCCN(C)C)cc1)c1ccccc1  AUC(0-inf) (CD-1 mouse, male, plasma; intraperitoneal, 10 mg/kg): 702 ng·h/mL
c1cc2ccc3cccc4ccc(c1)c2c34  Km (metabolism; pooled human liver microsomes; pH 7.4): 0.14 µM
CC[C@H](C)[C@H](NC(=O)[C@H](Cc1c[nH]cn1)NC(=O)[C@H](CO)NC(=O)CNC(=O)[C@H](CCC(=O)O)NC(=O)[C@H](CCSC)NC(=O)[C@@H](NC(=O)[C@H](Cc1c[nH]cn1)NC(=O)[C@H](CO)NC(=O)[C@H](CCSC)NC(=O)[C@H](C)NC(=O)[C@H](CC(N)=O)NC(C)=O)C(C)C)C(=O)N[C@@H](CC(N)=O)C(=O)N[C@@H](Cc1c[nH]c2ccccc12)C(=O)N[C@@H](CC(=O)O)C(=O)N[C@@H](C)C(N)=O  alpha-helix content (circular dichroism; water with 5% DMSO; 500 µM, 18 °C): 35%
C[C@@H]1NC(=O)[C@H](CCCCNC(=O)CO/N=C/C(=O)NCCCC[C@@H]2NC(=O)[C@@H](Cc3ccccc3)NC(=O)[C@H](CC(=O)O)NC(=O)CNC(=O)[C@H](CCCNC(=N)N)NC2=O)NC(=O)CNC(=O)[C@@H]2CCCN2C(=O)[C@H](CCCCNC(=O)CO/N=C/C(=O)NCCCC[C@@H]2NC(=O)[C@@H](Cc3ccccc3)NC(=O)[C@H](CC(=O)O)NC(=O)CNC(=O)[C@H](CCCNC(=N)N)NC2=O)NC(=O)[C@H](CCCCNC(=O)[C@H](CCCCN)NC(=O)[C@H](Cc2ccccc2)NC(=O)CNC(=O)CN2CCCNCCNCCCNCC2)NC(=O)[C@H](CCCCNC(=O)CO/N=C/C(=O)NCCCC[C@@H]2NC(=O)[C@@H](Cc3ccccc3)NC(=O)[C@H](CC(=O)O)NC(=O)CNC(=O)[C@H](CCCNC(=N)N)NC2=O)NC(=O)CNC(=O)[C@@H]2CCCN2C(=O)[C@H](CCCCNC(=O)CO/N=C/C(=O)NCCCC[C@@H]2NC(=O)[C@@H](Cc3ccccc3)NC(=O)[C@H](CC(=O)O)NC(=O)CNC(=O)[C@H](CCCNC(=N)N)NC2=O)NC1=O [copper-64 labelled]  tissue uptake (normal mice, intestine; intravenous, 0.74 MBq, 3 h post-injection): 1.8 ± 0.12 %ID/g
Cc1ccc2c(c1)C(=O)C1(O)CCN(c3ccccc3)C1=N2 (stereo not drawn)  reduction from baseline (cardiac output, echocardiography; rat; IV infusion, 0.5 mg/kg): ~80%
Oc1ccc(Cl)c(-c2cc(Cl)c(Cl)cc2Cl)c1Cl  enantiomeric fraction (enantioselective gas chromatography; racemized sample; column temperature 150 °C): 0.5
Cn1cncc1-c1c(F)cncc1NC(=O)c1c(N)nn2cc(F)cnc12  grade ≥3 hyperkalaemia incidence (human patients; oral, 130 mg once daily): 11%
CO[C@H]1C[C@@H]2CC[C@@H](C)[C@@](O)(O2)C(=O)C(=O)N2CCCC[C@H]2C(=O)O[C@H]([C@H](C)C[C@@H]2CC[C@@H](OC(=O)NCCOCCOCCOCCOCCOCCOCCOCCOCCC(=O)N3CCc4cc(Cn5nc(-c6ccc7oc(N)nc7c6)c6c(N)ncnc65)ccc4C3)[C@H](OC)C2)C[C@@H](O)[C@H](C)/C=C(\C)[C@@H](O)[C@@H](OC)C(=O)[C@H](C)C[C@H](C)/C=C/C=C/C=C/1C  deaths due to TRAEs (phase 1 dose escalation; advanced solid tumour patients; intravenous, 16 mg weekly, grade ≥3): 0%
COc1ncccc1-c1cnn2ccc(N3CCN(C(=O)OC(C)C)CC3)nc12  drug concentration (rat, STZ model, plasma; oral, 3 mg/kg, 240 min): 320 nM
